Results pooled from the literature.
A part holds a random share of what one study measured. Changes are numbered by the printed parent chain.

Set 1
Target: RING finger protein unkempt homolog, zinc fingers 1-6, GST-SBP tag (UNK, Homo sapiens, UniProt Q9C0B0, residues 30-357)
Technique: RNA Bind-n-Seq
Form: RNA
Medium: in vitro
Concentration: not given
Notes: RNA with constant flanks, human and mouse sites, ends assumed
Reference: input RNA pool
Direction: higher = stronger binding
Measurement: bound/input enrichment
All sequences stand within: GGGAGUUCUACAGUCCGACGAUC … CAACAGAGGAUUGAGCAUCA
Target sequence (chain): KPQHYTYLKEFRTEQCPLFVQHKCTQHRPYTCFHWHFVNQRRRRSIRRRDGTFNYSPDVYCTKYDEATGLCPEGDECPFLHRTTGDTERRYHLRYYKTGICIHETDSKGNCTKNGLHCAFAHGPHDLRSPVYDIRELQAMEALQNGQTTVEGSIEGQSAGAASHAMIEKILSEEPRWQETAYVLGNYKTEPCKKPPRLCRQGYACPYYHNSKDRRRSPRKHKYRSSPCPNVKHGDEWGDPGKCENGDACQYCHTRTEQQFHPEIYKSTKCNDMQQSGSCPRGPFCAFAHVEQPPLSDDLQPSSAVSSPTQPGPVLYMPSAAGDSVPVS
Oligonucleotide = CACACCCUGGCCGCCUACUACCCCGACCUGCCCACCCCAGAACAGCAGCAAGACAUGGCCCAGUUCAUACAUUUAUUUUCUAAGUUUUACCCCUGUGAGGAGUGUGCUGAAGACCUAAGA; result = 0.399 ratio
Oligonucleotide = GCAGAUGCUGAGGUUGCCAGGAGGAAAUCAGUCCCAUCAGAGGCUAUGCUUGCAGAGAGUAGUACCAGUUUGCCACCUGUCGCUGAUGAAAGCCCAGUCACUGUAAAACCAGAUAGUCAA; result = 0.164 ratio
Oligonucleotide = GGAGCUGCCCCUCCCGUCACAUCAGAACCUUGGAAGCUGCUGCUGCUGCUUACAGAAUUAUAUUUUUUUCUUUUGAAGAGUUUUAAGAAGUUGUAACUUUUUGUGUCUUGUCAUGUCAGA; result = 0.435 ratio
Oligonucleotide = AUUUGCUUUUAUUAUUAUUAUUAUUAUUAUUUUAGACACAGUCUUGCUCUGUCACCCAGGCUGGAGUGCGGUGGUAUUAUCUCGGCUCACUGCAACCUCCACCUCUCGGGUUCAAGCAAU; result = 55.2 ratio
Oligonucleotide = GUAGAUUGCAUUUCGGCUUUUCCUCCUUUCACAUUCUUUUUUGCUUUACACUUCACGUCUUCGCACCUGCCCUACCUCCCAUCCUUUCAAAGAGGUUUCUUUCACGUUCCAGAAUUCAGA; result = 0.415 ratio
Oligonucleotide = CUGAGCAUGAGAGAGCAGGAGGAAGAGCAUCCUGUCAGAAGCAGCGGCCCUCAGAUUUCUGUGAGCGAGUUCUCCUGCCACUGCUGCUACGACACCCUGGUUAACCCCACCACCUUGAAC; result = 0.254 ratio
Oligonucleotide = GCGGGUGCUGUGCGCUUCUAUUCCAAGGACAGUGAAGGAAGCUGGUUCCGUUCCCUCUUUGUCCACAAGGUGGAUCCUCGGAAGGACGCCCACUCCACUCUGCUGUCCAAGAAGGAGACU; result = 0.0874 ratio
Oligonucleotide = AAACAAAUAGGUAUAAAUAAAAAAUCGGUAAAAUCUGCAAAAGAUGGCACAUCUCCAGAAGAAGAAAUUGAAAUAGAAAGACAAAAGGCUGAAAUGGCUUUGCUUAUGAUGGAUGAGGAC; result = 31 ratio
Oligonucleotide = UUCGUACCAGUUAUUAAACUCUGUUUUGAUGGGAUAGAGAUUGAUAUUUUGUUUGCAAGAUUAGCACUGCAGACAAUUCCUGAAGAUUUGGAUCUACGAGAUGACAGUCUGCUAAAAAAU; result = 0.0963 ratio
Oligonucleotide = GAUGAACUUCAUGAUCAUGGAGUUUCAAGCCUGAGUGUGAAGAUUAGAGUAAUGCCUUCUAGCUUUUUCCUGCUGUUGCGGUUUUUCUUGAGAAUUGAUGGGGUGCUUAUCAGAAUGAAU; result = 1.11 ratio
Oligonucleotide = UCUCUCCUCCUAAGUUACGGGGCAGAUCCAACCCUGCUGAACUGUCACAAUAAAAGUGCUAUAGACCUGGCCCCCACGGCACAGCUGAAGGAAAGAUUAUCGUAUGAAUUUAAAGGCCAU; result = 0.165 ratio

Set 2
Target: Histone acetyltransferase KAT6A, both winged helices, GST fusion (KAT6A, Homo sapiens, UniProt Q92794, residues 1-181)
Technique: protein binding microarray
Form: double-stranded DNA, one strand shown
Medium: in vitro
Concentration: not given
Notes: 8-mer, flanks averaged, mean of 2 arrays, mostly near background
Reference: not given
Direction: higher = stronger binding
Measurement: E-score
Target sequence (chain): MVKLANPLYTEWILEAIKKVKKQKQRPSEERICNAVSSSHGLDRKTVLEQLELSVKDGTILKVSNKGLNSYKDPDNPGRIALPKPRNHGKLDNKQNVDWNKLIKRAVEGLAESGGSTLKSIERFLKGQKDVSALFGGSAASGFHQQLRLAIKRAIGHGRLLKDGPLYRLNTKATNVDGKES
Oligonucleotide = ATACATTC; result = -0.0803
Oligonucleotide = ACATTAAT; result = -0.0333
Oligonucleotide = AGCGATTG; result = 0.0545
Oligonucleotide = CCCCCGCG; result = 0.283
Oligonucleotide = CACTATAG; result = -0.146
Oligonucleotide = AACTGCTC; result = 0.0323
Oligonucleotide = ATGCGGAA; result = 0.202
Oligonucleotide = CGATCCTC; result = -0.00864
Oligonucleotide = ATACTGAG; result = -0.0429
Oligonucleotide = ATAGCGCG; result = 0.321
Oligonucleotide = ACCTATAA; result = -0.117
Oligonucleotide = CAGTAGTC; result = -0.0829
Oligonucleotide = AGATCTAC; result = -0.0623
Oligonucleotide = GGCAACGA; result = 0.0981
Oligonucleotide = GAAGCCCC; result = -0.0213
Oligonucleotide = GAGCCGAC; result = 0.121
Oligonucleotide = ACGAGTTG; result = -0.137
Oligonucleotide = CACCTCGG; result = 0.0649
Oligonucleotide = ATAGCTGA; result = -0.0345
Oligonucleotide = ATCGATGG; result = -0.105
Oligonucleotide = ACTTAACG; result = 0.0166
Oligonucleotide = ACAGAGGA; result = -0.237
Oligonucleotide = ACGCCTCT; result = -0.132
Oligonucleotide = ACCAATAG; result = -0.169
Oligonucleotide = CAGCTTAC; result = 0.0361

Set 3
Target: Prothrombin, mature alpha-thrombin (F2, Homo sapiens, UniProt P00734)
Technique: aptamer microarray, sandwich
Form: DNA with 2'F-ANA
Medium: in vitro
Concentration: 200 nM
Notes: whole 15-mer aptamer, many near background
Added: Cy3 exosite-II aptamer, 400 nM
Direction: higher = stronger binding
Measurement: mean fluorescence intensity
Oligonucleotide: GGTTGGTGTGGTTGG
Modification = 2'F-ANA at 4 6 9 12 13; result = 292 a.u.
Modification = 2'F-ANA at 3 4 6 9 10 11 13; result = 252 a.u.
Modification = 2'F-ANA at 5 7 9 11 12 14 15; result = 61.2 a.u.
Modification = 2'F-ANA at 1 2 3 6 9 11 12 13 15; result = 246 a.u.
Modification = 2'F-ANA at 4 5 6 7 9 10 12 14 15; result = 51.2 a.u.
Modification = 2'F-ANA at 2 5 6 8 9 11 13 14 15; result = 46.9 a.u.
Modification = 2'F-ANA at 3 4 5 10 12 14; result = 52.3 a.u.
Modification = 2'F-ANA at 1 3 4 7 10 15; result = 62.2 a.u.
Modification = 2'F-ANA at 2 5 9 10 15; result = 48.3 a.u.
Modification = 2'F-ANA at 2 4 7 8 15; result = 391 a.u.
Modification = 2'F-ANA at 1 8 10 13 14; result = 45.5 a.u.
Modification = 2'F-ANA at 1 2 4 5 6 7 10 12; result = 52.2 a.u.
Modification = 2'F-ANA at 2 3 5 6 7 8 9 13 15; result = 65.8 a.u.
Modification = 2'F-ANA at 2 6 9 10 13; result = 98.9 a.u.
Modification = 2'F-ANA at 2 6 11 12 13 14; result = 137 a.u.
Modification = 2'F-ANA at 1 2 3 12 13 15; result = 393 a.u.
Modification = 2'F-ANA at 1 3 5 6 7 8 9 12 13; result = 90.7 a.u.
Modification = 2'F-ANA at 1 7 8 12 13 14; result = 84 a.u.

Set 4
Target: CCND2, cyclin fold, Cln2 fusion (human)
Technique: yeast growth competition, sequencing
Medium: yeast
Notes: weak parent motif
Reference: not given
Direction: higher = stronger binding
Measurement: normalised enrichment score
Starting sequence: PKMYT1 docking peptide (human); SFEPRNLLSLFED; partner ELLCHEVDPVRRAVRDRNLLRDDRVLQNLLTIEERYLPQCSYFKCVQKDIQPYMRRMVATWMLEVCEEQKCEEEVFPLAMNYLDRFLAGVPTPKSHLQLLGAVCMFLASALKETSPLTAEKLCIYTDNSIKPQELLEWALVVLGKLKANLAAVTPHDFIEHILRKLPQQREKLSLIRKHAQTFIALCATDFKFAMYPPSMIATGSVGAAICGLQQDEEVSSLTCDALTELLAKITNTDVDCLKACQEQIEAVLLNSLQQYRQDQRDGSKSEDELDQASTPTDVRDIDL
Variant = SFEPRSLLSLFED [N6S]; result = -0.036
Variant = SFERRNLLSLFED [P4R]; result = 0.327
Variant = TFEPRNLLSLFED [S1T]; result = -0.229
Variant = SFEPRNLLHLFED [S9H]; result = 0.059
Variant = SFEPRPLLSLFED [N6P]; result = 0.189
Variant = SFEPRNTLSLFED [L7T]; result = -0.0298
Variant = SFEPRNLQSLFED [L8Q]; result = -0.177
Variant = SFEPRNLLVLFED [S9V]; result = 0.436
Variant = SFEPINLLSLFED [R5I]; result = 0.394
Variant = SFEKRNLLSLFED [P4K]; result = 0.177
Variant = SFEPKNLLSLFED [R5K]; result = 0.153
Variant = SFEPRNLLSNFED [L10N]; result = 0.393
Variant = SFEPRNLLSGFED [L10G]; result = 0.349
Variant = WFEPRNLLSLFED [S1W]; result = 0.0444
Variant = SFEMRNLLSLFED [P4M]; result = 0.566
Variant = SFEPRRLLSLFED [N6R]; result = 0.139
Variant = SFEPRNLLGLFED [S9G]; result = 0.435
Variant = QFEPRNLLSLFED [S1Q]; result = 0.063
Variant = SFEPRNLLSLFET [D13T]; result = -0.0335
Variant = SFEPSNLLSLFED [R5S]; result = 0.335
Variant = SQEPRNLLSLFED [F2Q]; result = -0.0821
Variant = SFEPRNLLQLFED [S9Q]; result = -0.114
Variant = SFEPRNELSLFED [L7E]; result = -0.136
Variant = SFEPVNLLSLFED [R5V]; result = 0.222
Variant = SFEPRNYLSLFED [L7Y]; result = -0.0338
